Experimental data of several laboratories.
Each line is one published result; not all experiments were run side by side. ± marks the error that the study gave. Converted amounts (≈) assume the structure as drawn.
Organism: Pseudomonas aeruginosa

`O=c1cc(-c2ccc(O)cc2)oc2cc(O)cc([O][Ga+][O]c3cc(O)cc4oc(-c5ccc(O)cc5)cc(=O)c34)c12` gave an IC50 of 3.59 µg/mL (bacterial viability).
With `CC[C@@H](C)[C@@H](NC(=O)[C@@H](C)NC(=O)[C@@H](CCCCN)NC(=O)[C@@H](CC(C)C)NC(=O)[C@@H](C)NC(=O)[C@H](NC(=O)[C@@H](Cc1c[nH]cn1)NC(=O)[C@@H](CC(C)C)NC(=O)[C@H](NC(=O)[C@H](NC(=O)[C@@H](CCCCN)NC(=O)[C@H](NC(=O)[C@@H](C)NC(=O)[C@@H](CO)NC(=O)[C@@H](CCCCN)NC(=O)[C@@H](Cc1ccccc1)NC(=O)[C@H](NC(=O)[C@@H](CCCCN)NC(=O)[C@@H](CC(C)C)NC(=O)[C@@H](Cc1ccccc1)NC(=O)[C@@H](CO)NC(=O)[C@@H](CCCCN)NC(=O)[C@@H](Cc1c[nH]c2ccccc12)NC(=O)[C@@H](CCCCN)NC(C)=O)[C@H](C)O)C(C)C)[C@H](C)O)C(C)C)[C@H](C)O)C(=O)N[C@H](CO)C(=O)N[C@H](CO)C(N)=O` the therapeutic index was 1 (six isolates; relative to: HC50 over geometric mean MIC).
The MBIC of `CC(C)CCCCC(=O)N[C@@H](CCN)C(=O)N[C@H](C(=O)N[C@@H](CCN)C(=O)N[C@H]1CCNC(=O)[C@H]([C@@H](C)O)NC(=O)[C@H](CCN)NC(=O)[C@H](CCN)NC(=O)[C@H](CC(C)C)NC(=O)[C@@H](Cc2ccccc2)NC(=O)[C@H](CCN)NC1=O)[C@@H](C)O` is reported as 8 µg/mL (biofilm formation; PAO1; 24 h, 37 °C).
`CCCCCCCCCCCCCCCC(=O)N[C@@H](CCCCN)C(=O)N[C@@H](CCCCN)C(=O)N(CCCCN)CC(=O)N[C@@H](CCCCN)C(=O)N[C@@H](CCCCN)C(N)=O` gave an MBC of 128 µg/mL (≈ 143 µM) (ATCC 27853).
For `Oc1ccc(C(F)(F)F)cc1-c1nc2c(Cl)cc(Cl)cc2[nH]1`, “MIC of colistin” read 2 µg/mL (colistin potentiator; TRPA 161, colistin-resistant; 5 µM).
`COc1ccc(-c2ccn(CC[C@](C)(C(=O)NO)S(C)(=O)=O)c(=O)c2)c(F)c1` has an ED50 of < 25 mg/kg (PA-1950, mouse acute pneumonia model; 48 h).
For `O=c1cc(-c2ccccc2)oc2cc(O)cc([O][Ga+][O]c3cc(O)cc4oc(-c5ccccc5)cc(=O)c34)c12`, the inhibition was 64% (pyoverdine secretion; 0.08 µM, 20 h).
`CC(C)C[C@H](NC(=O)[C@@H]1CCCN1C(=O)[C@H](CCCCN)NC(=O)C[C@@H]1O[C@@H](C)[C@@H](O)[C@@H](O)[C@@H]1O)C(=O)NCCCC[C@H](NC(=O)[C@H](CC(C)C)NC(=O)[C@@H]1CCCN1C(=O)[C@H](CCCCN)NC(=O)c1ccc(O[C@@H]2O[C@H](CO)[C@H](O)[C@H](O)[C@H]2O)cc1)C(=O)N[C@@H](Cc1ccccc1)C(=O)N[C@@H](CSSC[C@H](NC(=O)[C@H](Cc1ccccc1)NC(=O)[C@H](CCCCNC(=O)[C@H](CC(C)C)NC(=O)[C@@H]1CCCN1C(=O)[C@H](CCCCN)NC(=O)C[C@@H]1O[C@@H](C)[C@@H](O)[C@@H](O)[C@@H]1O)NC(=O)[C@H](CC(C)C)NC(=O)[C@@H]1CCCN1C(=O)[C@H](CCCCN)NC(=O)c1ccc(O[C@@H]2O[C@H](CO)[C@H](O)[C@H](O)[C@H]2O)cc1)C(N)=O)C(N)=O`: MBIC “inactive” (biofilm formation, WST-8 staining; PAO1; 24 h).
Under “inhibition zone diameter”, `S=c1n(CN2CCN(c3ccccn3)CC2)nc(C23CC4CC(CC(C4)C2)C3)n1-c1ccccc1` is recorded as 21 mm (IFO 3448; 200 µg/disc, 24 h, 37 °C).
`CC(=O)N[C@H](CCCCN)C(=O)N[C@H](CC(C)C)C(=O)N[C@H](CCCCN)C(=O)N[C@H](CO)C(=O)N[C@H](CC(C)C)C(=O)N[C@H](CC(C)C)C(=O)N[C@H](CCCCN)C(=O)N[C@@H](C(=O)N[C@H](CC(C)C)C(=O)N[C@H](CO)C(=O)N[C@H](CCCCN)C(=O)N[C@H](C)C(=O)N[C@H](CCCCN)C(=O)N[C@H](CCCCN)C(=O)N[C@H](CCCCN)C(=O)N[C@H](CC(C)C)C(=O)N[C@H](CC(C)C)C(=O)N[C@H](CCCCN)C(=O)N[C@@H](C(=O)N[C@H](C)C(=O)N[C@H](CC(C)C)C(=O)N[C@H](CCCCN)C(=O)N[C@H](C)C(=O)N[C@H](CC(C)C)C(=O)N[C@H](CO)C(=O)N[C@H](CCCCN)C(N)=O)[C@H](C)O)[C@H](C)O` has a therapeutic index of 170 (six isolates; relative to: HC50 over geometric mean MIC).
With `C[C@@H](O)[C@H](NC(=O)c1ccc(C#Cc2ccc(CN3CCOCC3)cc2)cc1)C(=O)NO` the MIC90 was 4 µg/mL (≈ 9.14 µM) (microbial growth; clinical isolate).
Under “inhibition zone diameter”, `Fc1ccc(CSc2nnc(C34CC5CC(CC(C5)C3)C4)n2-c2ccccc2)cc1` is recorded as < 10 mm (IFO 3448; 200 µg/disc, 24 h, 37 °C).
With `CCCCCCCCCCCCCCCC(=O)N[C@@H](CCCCN)C(=O)N[C@@H](CCCCN)C(=O)N[C@@H](CCCCN)C(=O)N[C@@H](CCCCN)C(=O)N[C@@H](Cc1c[nH]cn1)C(N)=O` the MBC was 128 µg/mL (≈ 141 µM) (ATCC 27853).
Under “zone of inhibition”, `Cc1cc(O)c2c(c1)C(=O)c1cc3oc(=O)cc(-c4ccc(O)cc4)c3c(O)c1C2=O` is recorded as < 8 mm (MTCC 2453; 100 µg/disc).
`CC[C@@H](C)[C@@H](NC(=O)[C@@H](C)NC(=O)[C@@H](CCCCN)NC(=O)[C@@H](CC(C)C)NC(=O)[C@@H](C)NC(=O)[C@H](NC(=O)[C@@H](CCCCN)NC(=O)[C@@H](CC(C)C)NC(=O)[C@H](NC(=O)[C@@H](CCCCN)NC(=O)[C@@H](CCCCN)NC(=O)[C@@H](CCCCN)NC(=O)[C@@H](C)NC(=O)[C@@H](CCCCN)NC(=O)[C@@H](CO)NC(=O)[C@@H](Cc1ccccc1)NC(=O)[C@H](NC(=O)[C@@H](CCCCN)NC(=O)[C@@H](CC(C)C)NC(=O)[C@@H](Cc1ccccc1)NC(=O)[C@@H](CO)NC(=O)[C@@H](CCCCN)NC(=O)[C@@H](Cc1c[nH]c2ccccc12)NC(=O)[C@@H](CCCCN)NC(C)=O)[C@H](C)O)C(C)C)[C@H](C)O)C(=O)N[C@H](CO)C(=O)N[C@H](CCCCN)C(N)=O` — result for “MIC geometric mean”: 1.6 µM (≈ 4.88 µg/mL) (six isolates; 24 h, 37 °C).
`CCCCCCCCCC1CC2CCCC3CC(CCCCCCCCC)NC(=N1)N23` (centres unmarked) gave an IC50 of 45 µM (bacterial growth; ATCC 27853).
For `CC[C@@H](C)[C@@H](NC(=O)[C@@H](C)NC(=O)[C@@H](CCCCN)NC(=O)[C@@H](CC(C)C)NC(=O)[C@@H](CC(C)C)NC(=O)[C@H](NC(=O)[C@@H](CCCCN)NC(=O)[C@@H](CC(C)C)NC(=O)[C@@H](C)NC(=O)[C@@H](CCCCN)NC(=O)[C@@H](CCCCN)NC(=O)[C@@H](CCCCN)NC(=O)[C@@H](C)NC(=O)[C@@H](CCCCN)NC(=O)[C@@H](CO)NC(=O)[C@@H](Cc1ccccc1)NC(=O)[C@H](NC(=O)[C@@H](CCCCN)NC(=O)[C@@H](CC(C)C)NC(=O)[C@@H](Cc1ccccc1)NC(=O)[C@@H](CO)NC(=O)[C@@H](CCCCN)NC(=O)[C@@H](Cc1c[nH]c2ccccc12)NC(=O)[C@@H](CCCCN)NC(C)=O)[C@H](C)O)[C@H](C)O)C(=O)N[C@H](CO)C(=O)N[C@H](CCCCN)C(N)=O`, “MIC geometric mean” read 2.3 µM (≈ 7.05 µg/mL) (six isolates; 24 h, 37 °C).
`CC[C@H](C)[C@H](NC(=O)[C@H](Cc1c[nH]cn1)NC(=O)[C@H](CCCCNC(=O)[C@@H](NC(=O)[C@H](CCCCN)NC(=O)[C@H](CCCCNC(=O)[C@H](CC(C)C)NC(=O)[C@@H]1CCCN1C(=O)[C@H](CCCCN)NC(=O)CSCCCCCCO[C@H]1O[C@@H](C)[C@@H](O)[C@@H](O)[C@@H]1O)NC(=O)[C@H](CC(C)C)NC(=O)[C@@H]1CCCN1C(=O)[C@H](CCCCN)NC(=O)CSCCCCCCO[C@H]1O[C@@H](C)[C@@H](O)[C@@H](O)[C@@H]1O)[C@@H](C)CC)NC(=O)[C@@H](NC(=O)[C@H](CCCCN)NC(=O)[C@H](CCCCNC(=O)[C@H](CC(C)C)NC(=O)[C@@H]1CCCN1C(=O)[C@H](CCCCN)NC(=O)CSCCCCCCO[C@H]1O[C@@H](C)[C@@H](O)[C@@H](O)[C@@H]1O)NC(=O)[C@H](CC(C)C)NC(=O)[C@@H]1CCCN1C(=O)[C@H](CCCCN)NC(=O)CSCCCCCCO[C@H]1O[C@@H](C)[C@@H](O)[C@@H](O)[C@@H]1O)[C@@H](C)CC)C(N)=O`: “concentration for 100% biofilm dispersal” 30 µM (PAO1).
`Cn1c(C23CC4CC(CC(C4)C2)C3)nn(CCN2CCCCC2)c1=S` — result for “inhibition zone diameter”: < 10 mm (IFO 3448; 200 µg/disc, 24 h, 37 °C).
For `Cc1cc([N+](=O)[O-])ccc1NC(=O)CSc1nc2ccccc2c(=O)n1-c1ccc(S(N)(=O)=O)cc1`, the inhibition zone was 25 mm (microbial growth, well diffusion; ATCC27853; 500 µg/mL, 24 h).
For `CC[C@@H](C)[C@@H](NC(=O)[C@@H](CCCNC(=N)N)NC(=O)[C@@H](CCCNC(=N)N)NC(=O)[C@@H](Cc1c[nH]c2ccccc12)NC(=O)[C@@H](CCC(N)=O)NC(=O)[C@H](N)C(C)C)C(=O)N[C@H](CCCNC(=N)N)C(=O)N[C@@H](C(=O)N[C@H](Cc1c[nH]c2ccccc12)C(=O)N[C@@H](C(=O)N[C@@H](C(=O)N[C@H](CCCNC(=N)N)C(N)=O)[C@H](C)CC)C(C)C)C(C)C`, the survival was 30 ± 6% (PAO1, Galleria mellonella larvae; proleg injection, 20 µg per larva, 48 h post infection, 37 °C, dosed 1 h after infection).
`Cc1cc(O)cc2c1C(=O)c1c(cc3oc(=O)cc(C)c3c1O)C2=O` — result for “zone of inhibition”: < 8 mm (MTCC 2453; 100 µg/disc).
The EC50 of `Cc1cccc2c3c(ccc12)C1=C(C(=O)C3=O)[C@@H](C)CO1` is reported as 25 µM (LDH release; J774.A1, PAO1; relative to: mock-treated infected cells).
`CCOC(=O)c1cnc(N/N=C/c2c(-c3ccc(Cl)cc3)nc3ncccn23)s1` gave an inhibition zone of 12 mm (microbial growth, well diffusion; ATCC27853; 100 µg/mL).
For `Cc1c2c(cc3oc(=O)cc(-c4ccc(Cl)cc4)c13)C(=O)c1cccc(O)c1C2=O`, “zone of inhibition” read 8 mm (MTCC 2453; 100 µg/disc).
`CC(=NNC(=N)N)c1nnn(-c2ccc(C#CC3(O)CCCCC3)cc2)c1C` gave a biofilm inhibition of 47 ± 0.66% (crystal violet; ATCC 10145; MIC).
With `CCOC(=O)c1cnc(N/N=C/c2c(-c3ccc(C#N)cc3)nc3ncccn23)s1` the inhibition zone was 15 mm (microbial growth, well diffusion; ATCC27853; 100 µg/mL).
`CCCCCCC[C@@H](O)CC(=O)N[C@H](CCN)C(=O)N[C@H]1CCNC(=O)[C@H](CC(C)C)NC(=O)[C@H](CCN)NC(=O)[C@H](CCN)NC(=O)[C@H](CC(C)C)NC(=O)[C@@H](Cc2ccccc2)NC(=O)[C@H](CCN)NC1=O`: “log10 CFU reduction” ~4 log10 CFU/mL (static time-kill; FADDI-PA070 polymyxin-resistant; 4 µg/mL, 2 to 6 h; relative to: control).
For `COc1cc(NC(=O)CSc2nc3ccccc3c(=O)n2-c2ccc(S(N)(=O)=O)cc2)cc(OC)c1`, the inhibition zone was 20 mm (microbial growth, well diffusion; ATCC27853; 500 µg/mL, 24 h).

For quick reference, copied from above:
The MBIC of `CC(C)CCCCC(=O)N[C@@H](CCN)C(=O)N[C@H](C(=O)N[C@@H](CCN)C(=O)N[C@H]1CCNC(=O)[C@H]([C@@H](C)O)NC(=O)[C@H](CCN)NC(=O)[C@H](CCN)NC(=O)[C@H](CC(C)C)NC(=O)[C@@H](Cc2ccccc2)NC(=O)[C@H](CCN)NC1=O)[C@@H](C)O` is reported as 8 µg/mL (biofilm formation; PAO1; 24 h, 37 °C).
`CCOC(=O)c1cnc(N/N=C/c2c(-c3ccc(Cl)cc3)nc3ncccn23)s1` gave an inhibition zone of 12 mm (microbial growth, well diffusion; ATCC27853; 100 µg/mL).
